{"data": "Published values of several laboratories", "note": "Every numbered part comes from another study and shows a few of its results, in no order. Substitutions count along the parent as printed."}
{"data": "Block 1", "target": "CCNB2, cyclin fold, Cln2 fusion (human)", "technique": "yeast growth competition, sequencing", "sample": "yeast", "notes": "weak parent motif", "baseline": "not given", "direction": "higher = stronger binding", "starting sequence": "SAMHD1 docking peptide (human); ASKSRVQLFKDDP"}
{"Variant": "ASKSRVQLTKDDP [F9T]", "normalised enrichment score": -0.0303}
{"Variant": "ASKSRVQLFNDDP [K10N]", "normalised enrichment score": 0.0179}
{"Variant": "ASKSFVQLFKDDP [R5F]", "normalised enrichment score": 0.101}
{"Variant": "ASKSRVQCFKDDP [L8C]", "normalised enrichment score": 0.328}
{"Variant": "ASKSRVQAFKDDP [L8A]", "normalised enrichment score": 0.14}
{"Variant": "ASWSRVQLFKDDP [K3W]", "normalised enrichment score": 0.161}
{"Variant": "ASKSRSQLFKDDP [V6S]", "normalised enrichment score": -0.203}
{"Variant": "ASKKRVQLFKDDP [S4K]", "normalised enrichment score": 0.207}
{"Variant": "ASKSRVDLFKDDP [Q7D]", "normalised enrichment score": 0.143}
{"data": "Block 2", "target": "Sal-like protein 4, full length isoform A (SALL4, Homo sapiens, UniProt Q9UJQ4, residues 1-1053)", "technique": "universal PBM", "form": "double-stranded DNA, one strand shown", "sample": "in vitro", "tested at": "600 nM", "notes": "8-mer, flanks averaged, mean of replicates", "direction": "higher = stronger binding", "sequence of UniProt Q9UJQ4 (whole entry, looked up)": "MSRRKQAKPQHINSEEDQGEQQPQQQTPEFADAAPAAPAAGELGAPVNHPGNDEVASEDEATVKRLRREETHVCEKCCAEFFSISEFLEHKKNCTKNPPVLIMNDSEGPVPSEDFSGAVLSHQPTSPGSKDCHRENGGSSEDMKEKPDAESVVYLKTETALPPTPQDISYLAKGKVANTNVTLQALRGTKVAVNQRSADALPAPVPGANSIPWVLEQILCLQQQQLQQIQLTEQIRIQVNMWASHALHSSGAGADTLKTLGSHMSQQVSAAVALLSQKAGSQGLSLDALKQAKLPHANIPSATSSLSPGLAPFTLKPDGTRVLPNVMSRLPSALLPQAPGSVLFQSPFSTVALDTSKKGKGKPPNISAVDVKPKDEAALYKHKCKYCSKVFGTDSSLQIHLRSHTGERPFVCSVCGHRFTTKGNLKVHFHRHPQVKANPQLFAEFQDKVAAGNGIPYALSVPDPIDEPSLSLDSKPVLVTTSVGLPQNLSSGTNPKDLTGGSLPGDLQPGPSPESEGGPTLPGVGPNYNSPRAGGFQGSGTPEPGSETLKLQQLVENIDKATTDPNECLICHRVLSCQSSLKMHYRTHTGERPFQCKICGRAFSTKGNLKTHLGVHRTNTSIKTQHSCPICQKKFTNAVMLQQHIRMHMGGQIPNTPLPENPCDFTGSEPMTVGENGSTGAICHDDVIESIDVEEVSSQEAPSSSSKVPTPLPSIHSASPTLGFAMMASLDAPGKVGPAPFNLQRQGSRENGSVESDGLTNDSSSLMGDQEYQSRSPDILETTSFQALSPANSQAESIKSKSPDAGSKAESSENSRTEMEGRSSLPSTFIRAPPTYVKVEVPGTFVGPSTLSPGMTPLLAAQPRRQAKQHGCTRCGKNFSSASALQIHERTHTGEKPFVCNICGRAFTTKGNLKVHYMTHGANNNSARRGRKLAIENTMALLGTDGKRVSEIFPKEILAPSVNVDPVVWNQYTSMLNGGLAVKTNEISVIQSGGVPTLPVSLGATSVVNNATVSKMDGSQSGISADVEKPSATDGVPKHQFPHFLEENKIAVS"}
{"Strand": "CAGCCGCA", "E-score": -0.333}
{"Strand": "AGAATAGA", "E-score": 0.161}
{"Strand": "CAGAGATG", "E-score": 0.118}
{"Strand": "AGTTGAAG", "E-score": 0.00555}
{"Strand": "CAAGAAGA", "E-score": 0.0583}
{"Strand": "AATAGCCT", "E-score": 0.0983}
{"Strand": "AGTCCGCA", "E-score": -0.13}
{"Strand": "CTATCGCA", "E-score": 0.00243}
{"Strand": "ATCCTCAG", "E-score": 0.00245}
{"Strand": "ATGGGTCG", "E-score": -0.177}
{"Strand": "GACATTCA", "E-score": 0.0511}
{"Strand": "ACATAGGG", "E-score": -0.078}
{"Strand": "CCCGGCCA", "E-score": -0.359}
{"Strand": "ACCTGTAT", "E-score": 0.146}
{"Strand": "GGTACGAC", "E-score": -0.237}
{"Strand": "CAAGGGAC", "E-score": -0.228}
{"Strand": "CGCGTACC", "E-score": -0.268}
{"Strand": "GAAGCAGC", "E-score": -0.189}
{"data": "Block 3", "target": "Histone acetyltransferase KAT6A, both winged helices, GST fusion (KAT6A, Homo sapiens, UniProt Q92794, residues 1-181)", "technique": "protein binding microarray", "form": "double-stranded DNA, one strand shown", "sample": "in vitro", "tested at": "not given", "notes": "8-mer, flanks averaged, mean of 2 arrays, mostly near background", "baseline": "not given", "direction": "higher = stronger binding", "Target sequence (chain)": "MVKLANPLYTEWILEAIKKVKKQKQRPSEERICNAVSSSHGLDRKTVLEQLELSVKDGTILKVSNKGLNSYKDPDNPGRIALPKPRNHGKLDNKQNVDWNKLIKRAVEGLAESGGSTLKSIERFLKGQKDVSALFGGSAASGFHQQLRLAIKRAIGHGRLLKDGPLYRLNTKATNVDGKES"}
{"Strand": "AATAGAAC", "E-score": 0.0169}
{"Strand": "AATGGGAC", "E-score": -0.207}
{"Strand": "ACCGTACA", "E-score": 0.0355}
{"Strand": "CAACCCAG", "E-score": -0.193}
{"Strand": "ACCGGTTC", "E-score": 0.113}
{"Strand": "ATGTTATA", "E-score": 0.0482}
{"Strand": "GATGCAGC", "E-score": -0.0956}
{"Strand": "ATCGTAAG", "E-score": 0.0627}
{"Strand": "TCGCAAAA", "E-score": 0.0616}
{"Strand": "ATCTTAGC", "E-score": 0.0264}
{"Strand": "AAGTGTAG", "E-score": -0.234}
{"Strand": "AAATTAAT", "E-score": -0.115}
{"Strand": "CGCTTCTC", "E-score": 0.227}
{"Strand": "CCTAAGGA", "E-score": -0.187}
{"Strand": "ATACCCCG", "E-score": 0.169}
{"Strand": "ACTTTTAT", "E-score": -0.146}
{"Strand": "CCAGGGAC", "E-score": -0.132}
{"Strand": "AAAGGTTC", "E-score": -0.134}
{"data": "Further values, each from its own experiment"}
{"Substance": "PhoQ, residues 284 288 289 292 302 303 SLKLQV", "target": "PhoP, residues 12 14 15 18 19 QQAYL (Escherichia coli, UniProt P23836)", "test": "Sort-seq, refers to: YFP reporter", "test system": "E. coli", "setting": "PhoQ-PhoP variant library, added: 10 µM Mg2+", "how to read": "baseline: high Mg2+ state, higher = stronger signaling", "measurement": "fold induction", "result": 13.4}
{"note": "For quick reference, copied from above (block 2):"}
{"Strand": "CAAGAAGA", "E-score": 0.0583}
{"Strand": "AATAGCCT", "E-score": 0.0983}
{"Strand": "AGTCCGCA", "E-score": -0.13}
